Published values from different studies.
Lines come from different studies, so protocols differ. Several values in a cell are separate wells, animals, samples, runs or records. Numbers after ± are the reported error.

The organ index of `N=C(N)NCCC[C@@H](NC(=O)[C@H](N)Cc1c[nH]c2ccccc12)C(=O)N[C@H](CCCCN)C(=O)N[C@H](Cc1c[nH]c2ccccc12)C(=O)N[C@H](CCCNC(=N)N)C(=O)N[C@H](CCCCN)C(=O)N[C@H](Cc1c[nH]c2ccccc12)C(=O)N[C@H](CCCNC(=N)N)C(=O)N[C@H](CCCCN)C(=O)N[C@H](Cc1c[nH]c2ccccc12)C(=O)N[C@H](CCCNC(=N)N)C(=O)N[C@H](CCCCN)C(N)=O` is reported as 0.594 (mouse, spleen; intravenous, 30 mg/kg single dose, 7 days).
`CC1(C)C(=O)N(c2ccc(C#N)c(C(F)(F)F)c2)C(=S)N1c1ccc(C(=O)O)c(F)c1` gave an MRT of 14.1 ± 2.24 days (human, male, plasma; oral, 160 mg, single dose, fasting).
`CCCC/C=C/C(=O)N[C@@H](Cc1csc2ccccc12)C(=O)N[C@H]1COC(=O)[C@@H]2C[C@@H](C)CN2C(=O)[C@H](C)NC(=O)[C@@H]2CCCCN2C(=O)[C@@H]2CCCN2C1=O` gave a cytotoxicity of 2.78% and 1.92% and 3.45% (LDH release; human ESC-derived lung organoids; concentration not given, 3 days).
For `CCCC[C@H]1C(=O)N(C)[C@@H](CCCC)C(=O)N[C@@H](CCCNC(=O)CN2CCN(CC(=O)O)CCN(CC(=O)O)CCN(CC(=O)O)CC2)C(=O)N[C@H](C(=O)NCC(N)=O)CSCC(=O)N[C@@H](Cc2ccc(O)cc2)C(=O)N(C)[C@@H](C)C(=O)N[C@@H](CC(N)=O)C(=O)N2CCC[C@H]2C(=O)N[C@@H](Cc2c[nH]cn2)C(=O)N[C@@H](CC(C)C)C(=O)N(C)CC(=O)N[C@@H](Cc2c[nH]c3ccccc23)C(=O)N[C@@H](CO)C(=O)N[C@@H](Cc2c[nH]c3ccccc23)C(=O)N1C` [gallium-68 labelled], the radiochemical purity was 98.6% (radio-HPLC; fetal bovine serum; 0 min, 37 °C).
For `CC(C)(C)C(=O)OCOP(=O)(OCOC(=O)C(C)(C)C)C1CCCN(O)C1=O` (stereo not drawn), the CC50 was > 100 µM (NCI-H322M).
`CCCCCCCCCCCC(=O)C(C)C(=O)N1CCC[C@H]1C(=O)NC(C)(C)C(=O)NC(C)(C)C(=O)NC(C)(C)C(=O)N[C@](C)(CC)C(=O)NCCC(=O)N[C@@H](C)C(=O)N[C@](C)(CC)C(=O)N[C@@H](C)C(=O)N[C@@H](CC(C)C)C(=O)N[C@](C)(CC)C(=O)NCCC(=O)N[C@@H](C)C(=O)N[C@](C)(CC)C(=O)NCCC(=O)N[C@@H](C)C(=O)NC(C)(C)C(=O)NC(C)(C)C(=O)NC(C)(C)C(=O)N[C@@H](C)C(=O)N[C@@H](CC(=O)O)C(=O)O` (stereo partly drawn): “remaining intact peptide” 42.9% and 40% (LC-MS; 50% pooled human serum; 40 µM, 120 min, pH 7.5, 37 °C; baseline: 0 h).
With `CCCCCCCCCCCCCCCC(=O)N[C@@H](CCCNC(=N)N)C(=O)N[C@@H](Cc1c[nH]c2ccccc12)C(=O)N[C@@H](CCCCN)C(=O)N[C@H](C(=O)N[C@@H](Cc1ccccc1)C(=O)N[C@@H](CCCCN)C(=O)N[C@@H](CCCCN)C(=O)N[C@H](C(=O)N[C@@H](CCC(=O)O)C(=O)N[C@@H](CCCCN)C(=O)N[C@H](C(=O)NCC(=O)N[C@@H](CCC(N)=O)C(=O)N[C@@H](CC(N)=O)C(=O)N[C@H](C(=O)N[C@@H](CCCNC(=N)N)C(=O)N[C@@H](CC(=O)O)C(=O)NCC(=O)N[C@H](C(=O)N[C@H](C(=O)N[C@@H](CCCCN)C(=O)N[C@@H](C)C(=O)NCC(=O)N1CCC[C@H]1C(=O)N[C@@H](C)C(=O)N[C@H](C(=O)N[C@@H](C)C(=O)N[C@H](C(=O)N[C@H](C(=O)NCC(=O)N[C@@H](CCC(N)=O)C(=O)N[C@@H](C)C(=O)N[C@@H](C)C(=O)N[C@H](C(=O)N[C@H](C(N)=O)[C@@H](C)CC)[C@@H](C)O)C(C)C)C(C)C)C(C)C)C(C)C)[C@@H](C)CC)[C@@H](C)CC)C(C)C)[C@@H](C)CC)[C@@H](C)CC` the hemolysis was ~60% (mouse erythrocytes; 50 µM, 1 h, 37 °C).
`CCCCCCCCCCCCCCCC(=O)N[C@@H](CCC(=O)NCCOCCOCCC(=O)NCCOCCOCCC(=O)NCCCC[C@H](NC(=O)[C@H](CC(=O)O)NC(=O)[C@H](CC(C)C)NC(=O)[C@H](Cc1ccc(O)cc1)NC(=O)[C@H](CCCCN)NC(=O)[C@H](CO)NC(=O)[C@H](Cc1ccc(O)cc1)NC(=O)[C@H](CC(=O)O)NC(=O)[C@H](CO)NC(=O)[C@@H](NC(=O)[C@H](Cc1ccccc1)NC(=O)[C@@H](NC(=O)CNC(=O)[C@H](CCC(N)=O)NC(=O)[C@@H](CO)NC(=O)[C@@H](N)Cc1c[nH]cn1)[C@@H](C)O)[C@@H](C)O)C(=O)N[C@@H](CCCNC(=N)N)C(=O)N[C@@H](CCCNC(=N)N)C(=O)N[C@@H](C)C(=O)N[C@@H](CCC(N)=O)C(=O)N[C@@H](CC(=O)O)C(=O)N[C@@H](Cc1ccccc1)C(=O)N[C@H](C(=O)N[C@@H](CCC(N)=O)C(=O)N[C@@H](Cc1c[nH]c2ccccc12)C(=O)N[C@@H](CC(C)C)C(=O)N[C@@H](CC(C)C)C(=O)N[C@@H](CC(N)=O)C(=O)N[C@H](C(=O)NCC(=O)NCC(=O)N1CCC[C@H]1C(=O)N[C@@H](CO)C(=O)N[C@@H](CO)C(=O)NCC(=O)N[C@@H](C)C(=O)N1CCC[C@H]1C(=O)N1CCC[C@H]1C(=O)N1CCC[C@H]1C(=O)N[C@@H](CO)C(N)=O)[C@@H](C)O)C(C)C)C(=O)O` gave a urea of 3.85 ± 0.66 mmol/L (Sprague-Dawley rat, male; subcutaneous, 20 µg/kg once daily, 14 days).
For `CC(=O)NCCCC[C@@H]1NC(=O)[C@H](Cc2c[nH]c3c(C)cccc23)NC(=O)[C@H]([C@@H](C)O)NC(=O)[C@H](CC(N)=O)NC(=O)[C@@H](NC(C)=O)C(C)(C)SSC(C)(C)[C@@H](C(=O)N[C@@H](Cc2ccc(OCCN)cc2)C(=O)N[C@@H](Cc2ccc3ccccc3c2)C(=O)NC2(C(=O)N[C@@H](CCC(=O)O)C(=O)N[C@@H](CC(N)=O)C(=O)N[C@@H](Cc3cccnc3)C(=O)N(C)CC(N)=O)CCOCC2)NC1=O`, “whole blood to plasma concentration ratio” read 0.79 ± 0.06 (cynomolgus monkey, blood; 0.013 µM, 2 h).
`C=Cc1c(C)c2cc3nc(c(CC(=O)[O-])c4[n-]c(cc5nc(cc1[n-]2)C(C)=C5CC)c(C)c4C(=O)[O-])C(CCC(=O)[O-])C3C.[Cu+2].[Na+].[Na+].[Na+]` (stereo not drawn) has a haemoglobin of 14.8 ± 1.37 g/dL (Wistar rat, male; oral, 250 mg/kg daily, 28 days).
`C=CC(=O)Nc1cccc(Cn2ncc3cnc(Nc4cnn(CCOC)c4)nc32)c1` gave an MCHC of 372 ± 5.98 g/L (Sprague-Dawley rat female, blood; oral, 180 mg/kg, day 28, 28-day subacute toxicity).
`CSCC[C@H](N)C(=O)N[C@@H](C)C(=O)N[C@@H](Cc1c[nH]c2ccccc12)C(=O)N[C@@H](Cc1c[nH]cn1)C(=O)N[C@@H](CC(=O)O)C(=O)N[C@@H](CC(=O)O)C(=O)N[C@@H](CCC(=O)O)C(=O)N[C@@H](CCC(=O)O)C(=O)N[C@@H](Cc1ccccc1)C(=O)N[C@@H](C)C(=O)N[C@@H](CCCNC(=N)N)C(=O)N[C@@H](CCCNC(=N)N)C(=O)N[C@@H](CCCNC(=N)N)C(=O)N[C@@H](CCCNC(=N)N)C(=O)NCCCCCC(=O)NCCCCC(NC(=O)CCCCCNC(=O)[C@H](CCCNC(=N)N)NC(=O)[C@H](CCCNC(=N)N)NC(=O)[C@H](CCCNC(=N)N)NC(=O)[C@H](CCCNC(=N)N)NC(=O)[C@H](C)NC(=O)[C@H](Cc1ccccc1)NC(=O)[C@H](CCC(=O)O)NC(=O)[C@H](CCC(=O)O)NC(=O)[C@H](CC(=O)O)NC(=O)[C@H](CC(=O)O)NC(=O)[C@H](Cc1c[nH]cn1)NC(=O)[C@H](Cc1c[nH]c2ccccc12)NC(=O)[C@H](C)NC(=O)[C@@H](N)CCSC)C(=O)NCCCCC(NC(=O)C(CCCCNC(=O)CCCCCNC(=O)[C@H](CCCNC(=N)N)NC(=O)[C@H](CCCNC(=N)N)NC(=O)[C@H](CCCNC(=N)N)NC(=O)[C@H](CCCNC(=N)N)NC(=O)[C@H](C)NC(=O)[C@H](Cc1ccccc1)NC(=O)[C@H](CCC(=O)O)NC(=O)[C@H](CCC(=O)O)NC(=O)[C@H](CC(=O)O)NC(=O)[C@H](CC(=O)O)NC(=O)[C@H](Cc1c[nH]cn1)NC(=O)[C@H](Cc1c[nH]c2ccccc12)NC(=O)[C@H](C)NC(=O)[C@@H](N)CCSC)NC(=O)CCCCCNC(=O)[C@H](CCCNC(=N)N)NC(=O)[C@H](CCCNC(=N)N)NC(=O)[C@H](CCCNC(=N)N)NC(=O)[C@H](CCCNC(=N)N)NC(=O)[C@H](C)NC(=O)[C@H](Cc1ccccc1)NC(=O)[C@H](CCC(=O)O)NC(=O)[C@H](CCC(=O)O)NC(=O)[C@H](CC(=O)O)NC(=O)[C@H](CC(=O)O)NC(=O)[C@H](Cc1c[nH]cn1)NC(=O)[C@H](Cc1c[nH]c2ccccc12)NC(=O)[C@H](C)NC(=O)[C@@H](N)CCSC)C(N)=O` (stereo partly drawn): “mean tissue distribution” 0.87% (C57BL/6 mouse female, thymus; dose not given, 3 h; baseline: total).
For `CSCC[C@H](NC(=O)CNC(=O)[C@H](CCCCN)NC(=O)[C@H](CC(C)C)NC(=O)[C@@H]1CCCN1C(=O)[C@H](CO)NC(=O)[C@H](Cc1c[nH]cn1)NC(=O)[C@H](Cc1c[nH]c2ccccc12)NC(=O)[C@H](CCCNC(=N)N)NC(=O)[C@H](CC(C)C)NC(=O)[C@H](CCCNC(=N)N)NC(=O)[C@H](Cc1c[nH]c2ccccc12)NC(=O)[C@H](CS)NC(=O)CCCCCNC(=O)CN1CCN(CC(=O)O)CCN(CC(=O)O)CCN(CC(=O)O)CC1)C(=O)O` [copper-64 labelled], the tissue uptake was 1.91 %ID/g (ex vivo biodistribution; C57BL/6J mice bearing B16-F10 tumours, heart; intravenous, 1.85 MBq, 18 h).
`CC[C@H](C)[C@H](NC(=O)[C@H](CCCCN)NC(=O)CNC(=O)[C@H](CC(C)C)NC(=O)[C@H](Cc1ccccc1)NC(=O)[C@H](CCCCN)NC(=O)[C@H](CO)NC(=O)[C@H](Cc1ccccc1)NC(=O)[C@H](Cc1c[nH]c2ccccc12)NC(=O)[C@H](CCC(N)=O)NC(=O)[C@@H](NC(=O)[C@H](Cc1ccccc1)NC(=O)CCCCCNC(=O)CN1CCN(CC(=O)O)CCN(CC(=O)O)CCN(CC(=O)O)CC1)C(C)C)C(=O)N[C@@H](CCC(=O)O)C(=O)N1CCC[C@H]1C(=O)N[C@@H](CC(=O)O)C(=O)N[C@H](C(=O)N[C@@H](CO)C(=O)N[C@@H](CCC(N)=O)C(=O)N[C@H](C(=O)N[C@@H](CCC(N)=O)C(=O)N[C@@H](CC(=O)O)C(=O)N1CCC[C@H]1C(=O)N[C@@H](CC(N)=O)C(=O)N[C@@H](CC(=O)O)C(=O)N[C@@H](CCC(N)=O)C(=O)N[C@@H](Cc1ccc(O)cc1)C(=O)N[C@@H](CCC(=O)O)C(=O)N1CCC[C@H]1C(=O)N[C@@H](Cc1ccccc1)C(=O)O)C(C)C)C(C)C` [copper-64 labelled] has a tissue uptake of 4.18 ± 0.6 %ID/g (C57BL/6 mice, thymus; with: LPS 3 mg/kg intratracheal).
`O=C1NC2(CC2)COc2ncc(F)cc2[C@H]2COCCN2c2ccn3ncc1c3n2`: “aspartate aminotransferase activity” 94.1 ± 11.4 U/L (Sprague-Dawley rat, male, serum; oral, 5 mg/kg/day, 4 weeks daily, end of treatment).

Repeated from above:
`CCCCCCCCCCCC(=O)C(C)C(=O)N1CCC[C@H]1C(=O)NC(C)(C)C(=O)NC(C)(C)C(=O)NC(C)(C)C(=O)N[C@](C)(CC)C(=O)NCCC(=O)N[C@@H](C)C(=O)N[C@](C)(CC)C(=O)N[C@@H](C)C(=O)N[C@@H](CC(C)C)C(=O)N[C@](C)(CC)C(=O)NCCC(=O)N[C@@H](C)C(=O)N[C@](C)(CC)C(=O)NCCC(=O)N[C@@H](C)C(=O)NC(C)(C)C(=O)NC(C)(C)C(=O)NC(C)(C)C(=O)N[C@@H](C)C(=O)N[C@@H](CC(=O)O)C(=O)O` (stereo partly drawn): “remaining intact peptide” 42.9% and 40% (LC-MS; 50% pooled human serum; 40 µM, 120 min, pH 7.5, 37 °C; baseline: 0 h).
